Measured values of several laboratories.
Lines come from different studies, so protocols differ. Several values in a cell are separate wells, animals, samples, runs or records.
Target: Serine/threonine-protein kinase MARK1 (MARK1, Homo sapiens, UniProt Q9P0L2)

SMILES | assay | setting | how to read | measurement | result
COCC12C(=O)NC3C4(C(OC)CC1O)C1CC5(O)C(OC)C(O)C(OC(C)=O)(C1C5OC(=O)c1ccccc1)C3(O)C(OC)C24 (stereo not shown) | kinase activity, inhibitor, ProQinase kinase profiling | 25 µM | relative to: control | remaining activity | 94% and 90%
CN1CCN(Cc2ccc(-c3ccc(CO[C@H]4CCC[C@@H]4NC(=O)c4cc(-c5cnn(C)c5)cnc4N)cc3)cc2)CC1 | enzyme activity, inhibitor | 0.1 µM | – | inhibition | 3%
C=CC(=O)Nc1cccc(-c2cnc3[nH]cc(C(=O)NC(C)(C)C)c3n2)c1 | enzyme activity, inhibitor | 0.1 µM | – | inhibition | 51%
COc1cc(Nc2nccc(-c3cnn4nc(OC)ccc34)n2)cc(C(F)(F)F)c1 | binding, competition with immobilised ligand | 1 µM | – | remaining binding | 88%
COc1ccc(NC(=O)Nc2ccc3c(c2)C(=O)N(C(C)CO)CC(C)C(CN(C)Cc2ccc4c(c2)OCO4)O3)cc1 (stereo not shown) | kinase activity, KinaseProfiler | 0.03 µM, species human | relative to: control | remaining activity | 106%
COc1c(OCCCN2CCOCC2)ccc2c1N=C(NC(=O)c1cnc(N)nc1)N1CCN=C21 | kinase activity, inhibitor | 1 µM | relative to: untreated control | remaining activity | 100%
Cc1cccc(O[C@H]2CCC[C@@H](C(C)CNCc3ccncc3)C2)c1 (relative stereo) | enzyme activity, inhibitor | 1 µM | – | inhibition | 2%
C=CC(=O)N1Cc2nc(-c3cc(-c4cc(Cl)cnc4Cl)c(F)cc3F)n(-c3ccncn3)c2C1 | cell-free assay, inhibitor | 1 µM | – | inhibition | -0.1%
CCN1CCN(Cc2ccc(C(=O)Nc3ccc(C)c(NCc4cnc5[nH]ccc5c4OC)c3)cc2C(F)(F)F)CC1 | binding, competition with immobilised ligand | 1 µM | – | remaining binding | 72%
O=C(Cc1ccc(OCc2ccccc2)cc1)NC1(C(=O)O)CCN(C(=O)c2ccc(-c3cccc(Cl)c3)cc2)CC1 | enzyme activity, inhibitor | 10 µM | – | activity vs control | 115%
C=CC(=O)N1CCc2ccc(-n3c(=O)ccc4cnc5ccc(-c6cnn(C)c6)cc5c43)cc21 | KINOMEscan | 1 µM | relative to: DMSO control | remaining binding | 95%
O=C=[N][Ru-4]123([n]4c5ccc(O)cc5c5c6c(c7cc(F)c[n+]1c7c54)C(=O)NC6=O)[S+]1CC[S+]2CC[S+]3CC1 (stereo not shown) | enzyme activity | 100 nM, human enzyme, added: 10 µM ATP | relative to: untreated | remaining activity | 78%
Cc1ccc(-c2c(/C=C(\C#N)C(=O)NC(C)C)n(CCCO)c3ncnc(N)c23)cc1 | cell-free assay, competition with immobilised ligand | 1 µM | – | remaining binding | 100%
CC(C)=CC1OC(C)(C)C2C=C3C(=O)C(Cl)=CC(O)C3C3C(O)C4OC4C(=O)C132 (stereo not shown) | cell-free assay, competition with immobilised ligand | 10 µM | – | remaining binding | 75%
NC(=O)[C@@H](O)C[C@H]1CCc2sc3ncnc(O[C@H]4CC[C@H](N5CCOCC5)CC4)c3c21 | enzyme activity, inhibitor | 10 µM | – | inhibition | 0%
Cc1nc2c(F)cc(-c3nc(Nc4ccc(CNC(=O)CCCCCCC(=O)NO)cc4)ncc3F)cc2n1C(C)C | enzyme activity, inhibitor | 1 µM | – | inhibition | 22%

For quick reference, copied from above:
SMILES | assay | setting | how to read | measurement | result
O=C=[N][Ru-4]123([n]4c5ccc(O)cc5c5c6c(c7cc(F)c[n+]1c7c54)C(=O)NC6=O)[S+]1CC[S+]2CC[S+]3CC1 (stereo not shown) | enzyme activity | 100 nM, human enzyme, added: 10 µM ATP | relative to: untreated | remaining activity | 78%
